Measured values collected from several papers.
Every numbered part comes from another study and shows a few of its results, in no order. Changes are numbered by the printed parent chain.

Series 1 — target: UBE2S UBC core domain (UniProt Q16763); technique: yeast two-hybrid; matrix: yeast; notes: mostly zero background; baseline: not given; reading: higher = stronger interaction
B1: PJA2 RING domain (UniProt O43164); chain DHTAIGQEQCCPICCSEYIKDDIATELPCHHFFHKPCVSIWLQKSGTCPVCRRHFPPAVIEA
B2: RNF32 RING domain (UniProt Q9H0A6); chain VQALRRETHECSICLAPLSAAGGQRVGAGRRSREMALLSCSHVFHHACLLALEEFSVGDRPPFHACPLCRSCYQKKILEC
B3: CBLL1 RING domain (UniProt Q75N03); chain GEKDDTPVHFCDKCGLPIKIYGRMIPCKHVFCYDCAILHEKKGDKMCPGCSDPVQRIEQCT
Target sequence (chain): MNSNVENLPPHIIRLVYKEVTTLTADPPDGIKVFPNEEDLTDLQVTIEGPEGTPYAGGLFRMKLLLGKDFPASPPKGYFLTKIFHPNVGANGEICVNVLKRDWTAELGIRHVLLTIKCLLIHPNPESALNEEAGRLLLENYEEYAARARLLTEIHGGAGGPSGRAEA
Sequence	lacZ reporter activity
VPADASPDSKCPICLDRFDNVSYLDRCLHKFCFRCVQEWSKNKAECPLCKQPFDSIFHSV (TOPORS RING domain (UniProt Q9NS56))	0
MEEMEEELKCPVCGSFYREPIILPCSHNLCQACARNILVQTPESESPQSHRAAGSGVSDY (TRIM9 RING domain (UniProt Q9C026))	0
B1 (PJA2 RING domain)	0
EDVLSKDAGECAICLEELQQGDTIARLPCLCIYHKGCIDEWFEVNRSCPEHPSD (ZNRF2 RING domain (UniProt Q8NHG8))	0
B2 (RNF32 RING domain)	0
FLSKVEETFQCICCQELVFRPITTVCQHNVCKDCLDRSFRAQVFSCPACRYDLGRSYAMQ (UHRF1 RING domain (UniProt Q96T88))	0
B3 (CBLL1 RING domain)	0
PLRRLQEEKLCKICMDRHIAVVFIPCGHLVTCKQCAEAVDRCPMCSAVIDFKQRVF (BIRC8 RING domain (UniProt Q96P09))	0

Series 2 — technique: DHFR PCA, deep sequencing; matrix: yeast; added: (+)-ABA 17 µM; baseline: wild-type fitted maximum; reading: higher = stronger binding
Target: ABI1, truncated, D143A, DHFR fusion (Arabidopsis thaliana)
Notes: methotrexate growth selection, single substitutions
Parent: PYL1, truncated, DHFR fusion (Arabidopsis thaliana); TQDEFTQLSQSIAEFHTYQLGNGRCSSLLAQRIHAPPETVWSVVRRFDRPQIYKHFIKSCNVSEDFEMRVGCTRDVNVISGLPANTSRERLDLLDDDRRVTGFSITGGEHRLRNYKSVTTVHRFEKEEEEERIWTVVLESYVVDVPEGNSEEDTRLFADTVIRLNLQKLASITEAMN; partner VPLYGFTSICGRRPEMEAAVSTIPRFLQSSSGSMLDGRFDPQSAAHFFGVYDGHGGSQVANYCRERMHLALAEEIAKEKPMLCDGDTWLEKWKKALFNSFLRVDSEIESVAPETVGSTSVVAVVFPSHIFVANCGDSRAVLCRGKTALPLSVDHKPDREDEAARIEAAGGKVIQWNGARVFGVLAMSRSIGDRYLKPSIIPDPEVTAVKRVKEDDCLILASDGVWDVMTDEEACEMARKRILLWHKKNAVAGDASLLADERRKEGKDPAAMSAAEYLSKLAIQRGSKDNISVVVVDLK
Change	relative binding score [%]
G107W	2.54
V118G	-18.5
I105D	-14.4
D95N	65.8
K58L	46.8
I12G	0.17
V78M	62.3
E109Y	39
G107Y	12.3
S80T	72.8
R88F	86.1
L112G	-1.22
V76I	95.6
V161M	39.6
E130T	81.1
R69D	68.2
E128V	76.2

Series 3 — technique: protein-binding microarray; form: double-stranded DNA, one strand shown; matrix: in vitro; tested at: 250 nM; notes: 60-bp whole probe; added: salmon DNA 0.4 mg/ml; baseline: random background probes; reading: higher = stronger binding; constant ends, left off below: GCCTAGCAC … GTCTTGATTCGCTTGACGCTGCTG
Target: Interferon regulatory factor 7, full length, phosphomimetic (IRF7, Homo sapiens, UniProt Q92985, residues 1-503, S101K/S471D/S472D/S475D/S476D/S477D/S483D/S484D/S487D)
Construct (chain): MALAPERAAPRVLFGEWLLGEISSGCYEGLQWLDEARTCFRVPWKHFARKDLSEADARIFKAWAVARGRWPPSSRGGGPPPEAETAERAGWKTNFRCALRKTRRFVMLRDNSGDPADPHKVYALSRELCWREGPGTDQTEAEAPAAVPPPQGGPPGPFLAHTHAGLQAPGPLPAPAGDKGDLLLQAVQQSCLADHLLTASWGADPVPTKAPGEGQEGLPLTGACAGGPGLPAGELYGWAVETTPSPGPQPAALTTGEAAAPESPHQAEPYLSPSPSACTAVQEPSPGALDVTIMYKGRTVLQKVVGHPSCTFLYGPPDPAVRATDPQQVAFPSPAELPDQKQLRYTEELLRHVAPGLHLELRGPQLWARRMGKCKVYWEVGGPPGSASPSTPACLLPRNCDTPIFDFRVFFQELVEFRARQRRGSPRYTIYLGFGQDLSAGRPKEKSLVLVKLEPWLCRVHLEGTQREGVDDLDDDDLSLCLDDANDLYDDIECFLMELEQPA
Sequence	log fluorescence
TCATTTCTCTTTCATTGCACTGTGCTA	2.84 z-score
TTAGGTTTCGGACTGGCTTAGTGCTAG	3.96 z-score
TCAAGTTTCTCTTTCCTACTGTGCTAG	7.16 z-score
TCATATATATATTGTTAGACTGTGCTA	0.473 z-score
GACGATATCCGTCTCGAGACGTGCTAG	0.106 z-score
GACGGTATCGGTCTCGGCACGTGCTAG	0.15 z-score
GACGGACCGCTACTGCTGACGTGCTAG	-0.809 z-score
GACGGACTGGACACTCGGGACGTGCTA	-0.382 z-score
TCACGTCTCTATCAAAAACTGTGCTAG	0.532 z-score
GCTGGGTTTTCTTGGCACAGGTGCTAG	-0.617 z-score
TCACAACTCTGTTTTCGACTGTGCTAG	0.536 z-score

Series 4 — technique: RNA Bind-n-Seq; form: RNA; matrix: in vitro; tested at: not given; baseline: input RNA pool; reading: higher = stronger binding
Target: RING finger protein unkempt homolog, zinc fingers 1-6, GST-SBP tag (UNK, Homo sapiens, UniProt Q9C0B0, residues 30-357)
UniProt Q9C0B0, sequence (30-357, looked up): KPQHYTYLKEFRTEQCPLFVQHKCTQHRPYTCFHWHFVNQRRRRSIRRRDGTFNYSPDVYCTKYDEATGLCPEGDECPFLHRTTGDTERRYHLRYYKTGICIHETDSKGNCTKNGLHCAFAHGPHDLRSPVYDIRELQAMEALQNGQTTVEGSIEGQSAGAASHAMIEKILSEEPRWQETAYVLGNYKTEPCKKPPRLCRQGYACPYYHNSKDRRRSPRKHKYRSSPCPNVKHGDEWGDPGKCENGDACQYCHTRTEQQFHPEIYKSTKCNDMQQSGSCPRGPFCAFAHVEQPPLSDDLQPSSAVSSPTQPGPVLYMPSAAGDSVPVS
Notes: RNA with constant flanks, human-mouse chimeric sites, ends assumed
Constant ends, left off below: GGGAGUUCUACAGUCCGACGAUC … CAACAGAGGAUUGAGCAUCA
Sequence	bound/input enrichment [ratio]
GUCAACAGUUGUCUCAAUCCCAUUCUCUACGCCUUCCUGGAUGAGAACUUCAAGGCCUGCUUCCGCAAGUUCUGCUGUGCAUCUGCCCUGCGCCGGGACGUGCAGGUGUCUGACCGCGUG	0.496
GGCCUGGACCUUCCUGGGGCUAGUACAAAUAGCGGCAGUGGAGGCUCGAGAGGAAAGUUUGUUAGUGGAGGCAGUGGAGAGGUCGUCCAUGUACGGUCCUUUACUCGAUAGAUGUGUUCU	0.357
UCAACAGACAACAUCAAAUACCAGCCUAAGGGGGGUCAGGUACAAAUUGUUACCAAGAAGAUAGACUUAAGCCAUGUGACAUCCAAAUGUGGCUCUCUGAAGAACAUCCGCCACAGGCCA	0.392
GAGCGUCUUGCCCGCACUGGGAUCAUCGUGACCACUAGUGAGGCUGUCCUCCUACAGCUGGUAGCUGACAAAGACCAUCCAAAAUUCAAGGAAAUUCAGAACCUAAUUAAGGCGAGUGCC	0.256
AUCAAAUACUUUGGGGACAUCAUUAGUGUGGGACAGAGACUGUUGCAAGGAGCUCGGAUUUUAGGAAUUCCAGUUAUCAUAACGGAACAAUACCCCAAAGGUCUUGGCAGCACCGUUCAA	0.299
AAAGAGUGGAUAGAGUGUGCACACGGGAUCGGUGGGACCCGGGCGAAAAAGGAGUGCAAGAUAGAAUUCGAUGACUUCGAAGAGUGCUUGCUUCGGUAGAAAACGAUGAGGCGAAUGCAU	0.526
UUAAUCCCCUUUACUGCUCCCCCACUUCUCAUGGUAAUAACAAAGUCUUAUAUCCCCAUAUUAGCUUUCACUCAGAUGGCUUAUGGAGCCGGUUUCCUAGCUUUCUUGGGAGGGAUCAGA	0.275
AUCAAAUACUUUGGGGACAUCAUUAGUGUGGGACAGAGAUUGUUGCAAGGAGCUCGGAUCUUAGGGAUUCCAGUUAUCAUAACGGAACAAUACCCCAAAGGUCUUGGCAGCACCGUUCAA	0.143

Series 5 — technique: RNA Bind-n-Seq; form: RNA; matrix: in vitro; tested at: 1 µM; notes: whole 134-nt RNA, ends assumed; added: 150 mM KCl; baseline: input library; reading: higher = stronger binding
Target: Ras GTPase-activating protein-binding protein 1, RRM domain (G3BP1, Homo sapiens, UniProt Q13283)
UniProt Q13283, sequence (whole entry, looked up): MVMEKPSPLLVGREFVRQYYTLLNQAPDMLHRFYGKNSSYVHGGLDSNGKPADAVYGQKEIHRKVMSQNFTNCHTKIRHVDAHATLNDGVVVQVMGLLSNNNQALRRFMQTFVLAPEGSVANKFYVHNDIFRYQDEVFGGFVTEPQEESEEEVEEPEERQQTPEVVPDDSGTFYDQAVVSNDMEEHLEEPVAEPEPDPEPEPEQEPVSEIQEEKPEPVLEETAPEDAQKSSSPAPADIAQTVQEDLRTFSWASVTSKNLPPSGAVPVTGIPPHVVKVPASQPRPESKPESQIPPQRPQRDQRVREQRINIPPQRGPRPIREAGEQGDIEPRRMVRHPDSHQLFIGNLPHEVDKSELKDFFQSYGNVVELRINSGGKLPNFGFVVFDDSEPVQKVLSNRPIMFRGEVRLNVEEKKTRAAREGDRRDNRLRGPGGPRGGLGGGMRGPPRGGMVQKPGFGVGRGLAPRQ
Constant ends, left off below: GGGAGUUCUACAGUCCGACGAUC … UGGAAUUCUCGGGUGUCAAGG
Sequence	log2 enrichment
ACCAUGCAGGUGGGCAUCUUUGGGAAGUGAGGCAAGGGGGGGAUAGGGAGGGGGGUAACACUUUGGGAACAGGUGGUCCCAGGUCGUUUC	-0.344
UUAGAAGAAGAAGAUGGAGUGUGGGAGAAUGGACUUUCCUAUGAAUGCCGUACUCUGCUUUUCAAAGCAGUUCACAAUCUAUUGGAACGG	-0.254
UGGCCUGCACAUUCAGCUGCAUGAUGAAGUUCACUGUCAAGGACUGUGAUCCCACCACUGGGGAGACUGAUGACGAAGGCUAUGAGGAUG	-0.269
CACAGGCAACACGCACCCACACAGACACAGAGGGAAGGGGUUGGGAUGGGGACAGGGUGCACAGCAGGGCGGGGUAGGACCCCAGCCCCU	-0.116
ACCAUGCAGGUGGGCAUCUUUGGGAAGUGGGGCAAGGGGGGGAUAGGGAGGGGGGUAACUCUUUGGGAACAGGUGGUCCCAGGUCGUUUC	1.05
UCCUCAAGUCCUGUGCUACACAUCGUAUGUACCGAAUCGGGGUGGUGGGUGGAAAGUAUUAUGUUACGCCGUUCGGAUCUGCACUUCCAG	-0.136
UCCUGUGCUACACAUCGUAUGUACCGAAUCAAAUUUUUAAACCCCCAAACCCCCCCAAAAAAGUAUUAUGUUACGCCGUUCGGAUCUGCA	-0.728
AUCAUUUCAUUUUUAUAAUUAUACAUUAGACAUUGGCACUUGUGUAAAACUGUCCCUGCAGAUUGAGCAGGAAGUAAAAACAAAUGGAAA	-0.319

Series 6 — technique: protein binding microarray; form: double-stranded DNA, one strand shown; matrix: in vitro; tested at: not given; baseline: not given; reading: higher = stronger binding
Target: Histone acetyltransferase KAT6A, both winged helices, GST fusion (KAT6A, Homo sapiens, UniProt Q92794, residues 1-181)
Notes: 8-mer, flanks averaged, mean of 2 arrays, mostly near background
Target sequence (chain): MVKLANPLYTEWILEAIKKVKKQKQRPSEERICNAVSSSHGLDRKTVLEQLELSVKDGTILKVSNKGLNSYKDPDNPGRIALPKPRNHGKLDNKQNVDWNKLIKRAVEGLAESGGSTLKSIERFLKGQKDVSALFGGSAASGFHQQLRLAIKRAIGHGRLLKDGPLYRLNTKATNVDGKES
Sequence	E-score
ACTAGACT	-0.0298
ACGACCGT	0.145
AGATAATG	-0.167
GAGTCGCC	0.106
CTCATGAG	-0.0768
AATCATTA	-0.0723
ACGAAAAG	-0.000515
AAATATCT	-0.158
AGAGACTC	-0.347
AGCTAGGG	-0.157
GGGATCGA	-0.11
AACCGTTC	0.0723
CGTAAACA	0.145
CCCTGGCA	-0.103
CACATGCC	0.0409
AGCCCTCC	-0.131
AACAAAGC	0.0697

Series 7 — technique: protein-binding microarray; form: double-stranded DNA, one strand shown; matrix: in vitro; tested at: not given; reading: higher = stronger binding
Target: Protein C-ets-1 (ETS1, Homo sapiens, UniProt P14921, residues 1-441, full length assumed)
UniProt P14921, sequence (whole entry, looked up): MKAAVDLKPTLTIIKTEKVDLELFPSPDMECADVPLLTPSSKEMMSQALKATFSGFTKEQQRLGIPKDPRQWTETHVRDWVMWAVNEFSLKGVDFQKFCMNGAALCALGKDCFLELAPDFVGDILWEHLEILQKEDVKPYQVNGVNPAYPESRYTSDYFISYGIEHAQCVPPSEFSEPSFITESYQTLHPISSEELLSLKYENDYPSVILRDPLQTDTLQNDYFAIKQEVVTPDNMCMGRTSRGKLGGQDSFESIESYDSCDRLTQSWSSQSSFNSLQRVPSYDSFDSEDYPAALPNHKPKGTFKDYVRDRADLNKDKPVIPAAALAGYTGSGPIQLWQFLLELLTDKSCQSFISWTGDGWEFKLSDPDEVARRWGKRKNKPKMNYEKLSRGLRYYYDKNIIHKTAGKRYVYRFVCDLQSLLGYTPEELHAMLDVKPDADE
Notes: k-mer, scored over probes, only values ≥0.25
Sequence	E-score
CCGGCGCA	0.293
AAATCCGG	0.435
AGGGGAAA	0.29
ACCGGAAG	0.498
TCCGGGCA	0.379
AAAGGAAG	0.413
CCATCCGC	0.432
ATGGCGGA	0.309
GGATATAA	0.322
CTCCAGGA	0.256
ACATGTCC	0.253
TCACAGGA	0.28
ACCGGTAT	0.288
CTCCCGGA	0.388
GGAAGCCA	0.432
CCTTCCCC	0.304

Excerpt of the above (series 2):
Change	relative binding score [%]
E130T	81.1
V118G	-18.5
S80T	72.8
V78M	62.3
E109Y	39
V161M	39.6
I105D	-14.4
R69D	68.2
G107W	2.54
D95N	65.8
